Measurements pooled from the literature.
Each numbered part is a random draw from the data of one study; scales do not carry over between parts. Substitutions count along the parent as printed.
Sequence of UniProt P00519 (whole entry, unmodified, looked up): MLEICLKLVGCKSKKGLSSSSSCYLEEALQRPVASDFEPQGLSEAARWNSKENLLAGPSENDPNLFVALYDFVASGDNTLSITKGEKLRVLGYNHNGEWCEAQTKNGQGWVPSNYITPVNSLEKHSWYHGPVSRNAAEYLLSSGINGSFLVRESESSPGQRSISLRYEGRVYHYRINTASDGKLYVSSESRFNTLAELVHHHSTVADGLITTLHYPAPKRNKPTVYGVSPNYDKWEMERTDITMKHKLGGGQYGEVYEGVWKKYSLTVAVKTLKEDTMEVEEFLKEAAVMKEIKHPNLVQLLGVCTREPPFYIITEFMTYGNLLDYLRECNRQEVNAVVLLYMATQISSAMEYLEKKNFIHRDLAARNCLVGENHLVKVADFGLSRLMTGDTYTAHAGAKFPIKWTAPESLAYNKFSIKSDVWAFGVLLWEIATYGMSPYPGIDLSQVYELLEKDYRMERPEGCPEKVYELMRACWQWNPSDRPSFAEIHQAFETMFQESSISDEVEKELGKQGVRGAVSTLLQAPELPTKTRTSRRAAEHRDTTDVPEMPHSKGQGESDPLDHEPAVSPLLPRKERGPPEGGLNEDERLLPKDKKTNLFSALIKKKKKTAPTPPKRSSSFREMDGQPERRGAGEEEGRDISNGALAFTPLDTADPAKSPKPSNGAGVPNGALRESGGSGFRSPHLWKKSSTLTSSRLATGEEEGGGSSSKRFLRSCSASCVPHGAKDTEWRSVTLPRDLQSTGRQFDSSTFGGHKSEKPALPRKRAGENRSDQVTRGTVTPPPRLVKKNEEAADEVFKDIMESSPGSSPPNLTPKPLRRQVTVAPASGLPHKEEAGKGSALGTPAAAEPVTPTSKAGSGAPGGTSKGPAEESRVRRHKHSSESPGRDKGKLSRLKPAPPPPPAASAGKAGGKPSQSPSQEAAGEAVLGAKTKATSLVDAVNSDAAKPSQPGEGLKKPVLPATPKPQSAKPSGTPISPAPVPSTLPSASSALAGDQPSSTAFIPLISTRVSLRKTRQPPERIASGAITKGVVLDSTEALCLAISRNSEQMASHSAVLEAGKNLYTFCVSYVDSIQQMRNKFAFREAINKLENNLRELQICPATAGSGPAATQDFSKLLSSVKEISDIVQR

Sample 1
Target: TAR DNA-binding protein 43, full length, His tag (TARDBP, Homo sapiens, UniProt Q13148, residues 1-414)
Method: RNA Bind-n-Seq
Form: RNA
Sample: in vitro
Concentration: 20 nM
Setting: 6-mer, flanks averaged, single round
Together with: 150 mM LiCl
Baseline: input library
Reading: higher = stronger binding
For `GCGAAA`, “6-mer enrichment (R)” read 0.875.
Under “6-mer enrichment (R)”, `AUCCCG` is recorded as 0.87.
Under “6-mer enrichment (R)”, `UCGUGA` is recorded as 0.926.
`UACCAU` — result for “6-mer enrichment (R)”: 0.893.
Under “6-mer enrichment (R)”, `CACAUU` is recorded as 0.945.
`CCACCG` — result for “6-mer enrichment (R)”: 0.944.
Under “6-mer enrichment (R)”, `CAUUUC` is recorded as 0.951.
`UAAUAC`: “6-mer enrichment (R)” 0.901.

Sample 2
Target: CCNB3, cyclin fold, Cln2 fusion (human)
Method: yeast growth competition, sequencing
Sample: yeast
Setting: weak parent motif
Baseline: not given
Reading: higher = stronger binding
Parent: WEE1 docking peptide (human); HKTFRKLRLFDTP
`HKTKRKLRLFDTP [F4K]` — result for “normalised enrichment score”: 0.385.
`HKTFRKLRLFDKP [T12K]` — result for “normalised enrichment score”: -0.0124.
`HKTFRKLRRFDTP [L9R]`: “normalised enrichment score” -0.183.
For `HKTFRKLDLFDTP [R8D]`, “normalised enrichment score” read -0.0337.
`HDTFRKLRLFDTP [K2D]` — result for “normalised enrichment score”: 0.473.
For `DKTFRKLRLFDTP [H1D]`, “normalised enrichment score” read 0.691.
`HKTFRKRRLFDTP [L7R]` — result for “normalised enrichment score”: 0.14.
Under “normalised enrichment score”, `HKTFRKLRLEDTP [F10E]` is recorded as 0.525.

Mixed results
`CNC(=O)Nc1ccc2c(c1)C1(CC2)OC(=O)N(CC(=O)N(Cc2ccc(F)cc2)[C@@H](C)C(F)(F)F)C1=O` (single isomer, unassigned) has a remaining binding of 78% (Tyrosine-protein kinase ABL1 (ABL1, Homo sapiens, UniProt P00519, F317I); KINOMEscan; 1 µM, F317I mutant, nonphosphorylated; baseline: control).
`C#C[C@]1(O)CC[C@H]2[C@@H]3CCc4cc(O)ccc4[C@H]3CC[C@@]21C` gave an inhibition of -46.8% (Sarcocystis neurona; parasite growth; 10 µM).
